Assay results from different studies.
± marks the error that the study gave.

`Cc1cc(/N=N/c2ccc(/N=N/c3ccc(O)c(C(=O)O)c3)cc2)c(N)cc1N` — result for mRNA level: “increased” (primary mouse articular chondrocytes; real-time PCR, measured: Col2a1; 25 µM, micromass culture).
`COc1cc(CNC(=O)C[C@H](C)CCC=C(C)C)ccc1O` gave a growth percent of 99.9% (OVCAR-8 ovarian cancer cells; SRB; 10 µM, 48 h).
For `CSCC[C@H](NC(=O)[C@H](CO)NC(=O)[C@@H](N)CO)C(=O)N[C@@H](CCCCN)C(=O)N[C@@H](CC(C)C)C(=O)N[C@@H](CO)C(=O)N[C@@H](Cc1ccccc1)C(=O)N[C@@H](CCCNC(=N)N)C(=O)N[C@@H](C)C(=O)N[C@@H](CCCNC(=N)N)C(=O)N[C@@H](C)C(=O)N[C@@H](Cc1ccc(O)cc1)C(=O)NCC(=O)N[C@@H](Cc1ccccc1)C(=O)N[C@@H](CCCNC(=N)N)C(=O)NCC(=O)N1CCC[C@H]1C(=O)NCC(=O)N1CCC[C@H]1C(=O)N[C@@H](CCC(N)=O)C(=O)N[C@@H](CC(C)C)C(=O)O`, “IR and IRS-1 tyrosine phosphorylation” read “no effect” (mouse primary hepatocytes; immunoblot; concentration not given).
`COc1cc(CNC(=O)C[C@H](C)CCC=C(C)C)ccc1OCc1cn(-c2cccc([N+](=O)[O-])c2)nn1` has a growth percent of 56.6% (MDA-MB-468 breast cancer cells; SRB; 10 µM, 48 h).
`Cc1nn(-c2ccc(S(=O)(=O)N[C@@H](CO)CC(C)C)cc2)c2nn3nnnc3nc12` has a necrotic cells of 24 ± 1.4% (HT-29; PI/Hoechst staining; 2 µM, 24 h).
With `CC(Cc1ccc(Cl)cc1)=C(c1ccc(Cl)cc1)c1ccc(OCCCN(C)C)cc1` the growth inhibition was 4.88% (NCI-60 tumour cell lines; 10 µM, mean over cell lines).
`Cc1cccc(-c2cn([C@@H]3O[C@H](CO)[C@@H](O)[C@H]3O)c3ncnc(N)c23)c1` has an EC50 of over 200 µM (HEK; cytotoxicity).
For `C=CC(=O)Nc1cc(Nc2nccc(-c3c(-c4cccc(OC)c4)n(C)c4ccccc34)n2)c(OC)cc1N(C)CCN(C)C`, protein level read “increased” (H1975; Western blot, measured: cleaved caspase-3; concentration not given, 24 h).
`CO[C@@H]1[C@H](N(C)C(=O)c2ccccc2)C[C@H]2O[C@]1(C)n1c3ccccc3c3c4c(c5c6ccccc6n2c5c31)C(=O)NC4` — result for “viable CD19+ B cells”: 100% (CLL patient B cells; flow cytometry; human; 1 nM; baseline: untreated).
With `CC(C)=C1CC[C@]2(COC(=O)c3ccccc3)[C@@H](OC(=O)c3ccccc3)/C=C(\C)CC[C@@H]3O[C@@]3(C)C[C@@H](OC(=O)c3cccnc3)[C@@H]12` the glucose consumption was 4.77 ± 0.79 mM (HepG2, palmitic acid-induced insulin resistance; 2.5 µM, 24 h).
`CC[C@H](C)[C@H](NC(=O)[C@H](Cc1ccccc1)NC(=O)[C@@H](N)C(C)C)C(=O)N[C@@H](C)C(N)=O` gave a viability of 79.3% (PC-12; Aβ42-induced neurotoxicity, inhibitor, MTT; concentration not given, 6 h, 37 °C, peptide to Aβ42 1:1, added: Aβ42 2 µM; baseline: untreated cells).
For `COc1cc(CNC(=O)C[C@H](C)CCC=C(C)C)ccc1OCc1cn(-c2ccc(F)cc2)nn1`, the growth percent was 68% (HOP-62; SRB; 10 µM, 48 h).
`C=CC(=O)Nc1cc(-c2nn(C3CCN(CCNC(=O)[C@H](C)CCC45CC6CC(CC(C6)C4)C5)CC3)c3ncnc(N)c23)ccc1Oc1ccccc1` gave an EC50 shift of 6 fold (PC-9 GR4 HER3 C721S; cell growth, CellTiter-Glo; baseline: C721S over wild-type HER3).
The growth percent of `COc1cc(CNC(=O)C[C@H](C)CCC=C(C)C)ccc1OCc1cn(-c2ccc(Br)cc2)nn1` is reported as 49.5% (OVCAR-4 ovarian cancer cells; SRB; 10 µM, 48 h).
`Cc1cc(O)c2c(C(=O)[O-])[n+]3n(c2c1)CCCC3` has a glucose consumption of 9.48 ± 0.93 mM (HepG2, palmitic acid-induced insulin resistance; 15 µM, 24 h).
The growth inhibition of `CCC(=C(c1ccc(Cl)cc1)c1ccc(OCCCN(C)C)cc1)c1ccc(Cl)cc1` is reported as 5.92% (NCI-60 tumour cell lines; 10 µM, mean over cell lines).
`COc1cc(CNC(=O)C[C@H](C)CCC=C(C)C)ccc1OCc1cn(-c2ccc(C#N)cc2)nn1` gave a growth percent of 89.5% (HCC 2998; SRB; 10 µM, 48 h).
`Cc1cc([C@H](C(=O)N2C[C@H](O)C[C@H]2C(=O)N[C@@H](CC(=O)N2CCC(N3CCC(C#Cc4ccc(C(=O)N[C@H]5C(C)(C)[C@H](Oc6ccc(C#N)c(Cl)c6)C5(C)C)cc4)CC3)CC2)c2ccc(-c3scnc3C)cc2)C(C)C)on1`: “lowest effective concentration” 0.25 µM (MDA-MB-453 and HCC1428; Western blot, measured: cleaved caspase-8, other caspases, PARP; 48 h).
The growth percent of `COc1cc(CNC(=O)C[C@H](C)CCC=C(C)C)ccc1OCc1cn(-c2ccc(Cl)cc2Cl)nn1` is reported as 89.3% (SW-620; SRB; 10 µM, 48 h).
`O=Cc1c(O)ccc2ccccc12` — result for “log2 fold change”: -3.16 (HUVEC; RNA sequencing, measured: GBP4; 75 µM, 24 h; baseline: DMSO).

Repeated from above:
`COc1cc(CNC(=O)C[C@H](C)CCC=C(C)C)ccc1OCc1cn(-c2cccc([N+](=O)[O-])c2)nn1` has a growth percent of 56.6% (MDA-MB-468 breast cancer cells; SRB; 10 µM, 48 h).
`O=Cc1c(O)ccc2ccccc12` — result for “log2 fold change”: -3.16 (HUVEC; RNA sequencing, measured: GBP4; 75 µM, 24 h; baseline: DMSO).
